Published values of several laboratories.
Each numbered part is a random draw from the data of one study; scales do not carry over between parts.

Study 1 — method: protein binding microarray; molecule type: double-stranded DNA, one strand shown; matrix: in vitro; tested at: not given; baseline: not given; reading: higher = stronger binding; measurement: E-score
Target: Histone acetyltransferase KAT6A, both winged helices, GST fusion (KAT6A, Homo sapiens, UniProt Q92794, residues 1-181)
Setting: 8-mer, flanks averaged, mean of 2 arrays, mostly near background
Construct (chain): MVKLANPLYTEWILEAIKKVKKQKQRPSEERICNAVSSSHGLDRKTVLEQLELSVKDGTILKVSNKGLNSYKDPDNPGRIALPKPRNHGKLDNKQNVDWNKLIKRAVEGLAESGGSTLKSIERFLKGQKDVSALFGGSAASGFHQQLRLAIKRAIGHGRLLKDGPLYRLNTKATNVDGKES
CACGCGAA: 0.193
GGGGGGAC: -0.202
ATGTCGAC: -0.113
CGATACCA: -0.0567
GTAACGAA: 0.0112
ATAGTTTG: -0.05
CACCGCCC: 0.133
CATGGGAC: -0.116
CGACGGCA: 0.285
AGAGGTGA: -0.182
AAAGTGGA: -0.262
AGAGGGGG: -0.334
CAAATCCG: 0.0851
ACCTGTTA: -0.0881
CGAAACCG: 0.16
CAGACCGG: 0.227
AGCCACAC: -0.111
GACTGTGA: -0.191
TAGTGATA: -0.175
AGTATTGC: -0.157
GCATTAGC: 0.0564

Study 2 — method: protein-binding microarray; molecule type: double-stranded DNA, one strand shown; matrix: in vitro; tested at: 2200 nM top; setting: 60-bp whole probe; added: salmon DNA 0.4 mg/ml; baseline: random background probes; reading: higher = stronger binding; measurement: fitted relative affinity; shared flanks, not repeated: GCCTAGCAC … GTCTTGATTCGCTTGACGCTGCTG
Target: Interferon regulatory factor 7, full length, phosphomimetic (IRF7, Homo sapiens, UniProt Q92985, residues 1-503, S471D/S472D/S475D/S476D/S477D/S483D/S484D/S487D)
Sequence of UniProt Q92985 (whole entry, unmodified, looked up): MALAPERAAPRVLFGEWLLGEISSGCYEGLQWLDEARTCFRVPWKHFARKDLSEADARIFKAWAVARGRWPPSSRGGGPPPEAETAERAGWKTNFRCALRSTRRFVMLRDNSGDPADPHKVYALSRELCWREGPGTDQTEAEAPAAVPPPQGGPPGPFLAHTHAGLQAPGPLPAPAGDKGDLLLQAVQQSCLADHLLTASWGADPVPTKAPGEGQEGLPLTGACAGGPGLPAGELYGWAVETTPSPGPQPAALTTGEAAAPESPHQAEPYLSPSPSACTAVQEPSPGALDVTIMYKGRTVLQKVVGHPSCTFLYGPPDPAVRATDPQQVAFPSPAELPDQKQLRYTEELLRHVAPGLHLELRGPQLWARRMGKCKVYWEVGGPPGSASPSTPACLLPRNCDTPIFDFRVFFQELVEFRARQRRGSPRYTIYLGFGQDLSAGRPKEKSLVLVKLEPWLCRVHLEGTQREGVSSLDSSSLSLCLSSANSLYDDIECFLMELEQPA
ATATATATTATATATACACATGTGCTA: 0.509 z-score
GACGGGATCGGTCTCGGGACGTGCTAG: -0.753 z-score
TGCCCTCTCCATACTTCCCAGTGCTAG: 1.76 z-score
GACGATATCGGTATCGGGACGTGCTAG: 0.427 z-score
TTAGTTTTCAGTTCCGATTAGTGCTAG: 4.9 z-score
GACGGTTTCCTTATTCTGACGTGCTAG: 2.43 z-score
GACGTACTGCTACTGCTGACGTGCTAG: 0.489 z-score
GACGATCTGGGGACTGGAGACGTGCTA: -0.14 z-score
TCAATTTTGTGTCTGGGACTGTGCTAG: 0.776 z-score
TGGGCTACCGGGTCCCTCTTGTGCTAG: -1.12 z-score
GTCGGACTGCTTCTCCTGACGTGCTAG: 0.953 z-score
GACGATCTCAGTTTCGAGAAGTGCTAG: 1.56 z-score
GTATTTGTCCCTATTTAAGAGTGCTAG: 2.01 z-score
GACGGTATCCTTATGCTGACGTGCTAG: 0.678 z-score
TTTTCATTTTCTTTAACTCAGTGCTAG: 4.97 z-score
GACGGACTGGGGTATCGGGTCGTGCTA: -0.254 z-score
GTCGAACTGAGTTTCGAGACGTGCTAG: 2.1 z-score
TTAGATCTCAGTATCGATCAGTGCTAG: 0.0298 z-score
GGCGGTATCGGTATCGGGACGTGCTAG: -0.198 z-score
TCATACATGGGTTTTCAGACTGTGCTA: 0.65 z-score
GACGGACTGAGACTGGGGACGTGCTAG: -0.437 z-score
TCTGATTTTGCTTTCATTTAGTGCTAG: 3.57 z-score

Study 3 — method: RNA Bind-n-Seq; molecule type: RNA; matrix: in vitro; tested at: 200 nM; setting: whole 134-nt RNA, ends assumed; added: 150 mM LiCl; baseline: input library; reading: higher = stronger binding; measurement: log2 enrichment; all molecules: 7-deaza-guanosine replaces G
Target: Fragile X messenger ribonucleoprotein 1, C-terminal low-complexity region (Fmr1, Mus musculus, UniProt P35922)
Shared flanks, not repeated: GGGAGUUCUACAGUCCGACGAUC … UGGAAUUCUCGGGUGUCAAGG
GUCAAGUGCUUCUGCUCCUGAUGUGGAUGACCCAGAGGCAUUCCCAGCUCUGGCUUAACUGGAUGCCAUAAGACAACCCUGGUUCCUUUG: -1.33
CACAGGCAACACGCACCCACACAGACACAGAGGGAAGGGGUUGGGAUGGGGACAGGGUGCACAGCAGGGCGGGGUAGGACCCCAGCCCCU: 0.784
AAGUCCUGUGCUACACAUCGUAUGUACCGAAUCGGAAAAGGGAAAAGGGGAAAAGGAAAGUAUUAUGUUACGCCGUUCGGAUCUGCACUU: -0.525
GCAGGAAGUAAAAACAAAUGGAAAUGCUUCGGAUAGUGGCAGGGGAGGGGGUUGCUAAGGAAAGGGUGGGAUGGGAGUGGGUAAAGAGUU: 1.49
CAAGUCCUGUGCUACACAUCGUAUGUACCGAAUCGGUUUUUUUGGAAAGGAAAGGAAAGUAUUAUGUUACGCCGUUCGGAUCUGCACUUC: -1.45
CGCAGAAGUCGCGUGUCUAGGUGAGUCGCGGUGGGUCCUCGCUUGCAGUUCAGCGACCACGGUGGGUACCGUUUUUGCGAGGAUUGUUUG: -1.47
CCUGUGCUACACAUCGUAUGUACCGAAUCGGGGUUUUUUGGGGUUUUUUGGUUUUUUGGGAAAGUAUUAUGUUACGCCGUUCGGAUCUGC: -0.648
CACAGACAACACGCACCCACACAGACACAGAGGGAAGGGGUUGGGAUGGGGACAGGGUGCACAGCAGGGAGGGGUAGGACCCCAGCCCCU: 0.86
CACAGACAACACGCACCCACACAGACACAGAGGGAAGGGGUUGGGAUGGGGACAGGGUGCACAGCAGGGCGGGGUAGGACCCCAGCACCU: -1.01
UGGGAGGUGGAUUUUGUUUAUUUUUUUAGCUCAUUUCCAGGGGUGGGUAUUUUUUUUUAAUAUGUGUCAUGAAUAAAGUUGUUUUUGAAA: 0.578
AGUCACUUUUUAAUUUUAUUUAUUAUUUCUCCUCUUAGACCGCAGGAUGGAAACAAGCCCACUGAGACUAGUCAACCUCAAUCUAGCACA: 1.87

Study 4 — method: RNA Bind-n-Seq; molecule type: RNA; matrix: in vitro; tested at: 20 nM; setting: 6-mer, flanks averaged, single round; added: 150 mM LiCl; baseline: input library; reading: higher = stronger binding; measurement: 6-mer enrichment (R)
Target: TAR DNA-binding protein 43, full length, His tag (TARDBP, Homo sapiens, UniProt Q13148, residues 1-414)
CACAGC: 0.857
UCCUAC: 0.846
GGUGGA: 1.28
CCUCAU: 0.958
GGGCUU: 1.02
AUCCGG: 0.856
ACUGUG: 1.06
CGCUAC: 0.877
CAGCGA: 0.881
UAUAGA: 0.909
CAUGAU: 0.859
CAAACA: 0.814
GAGUUC: 0.913
CGGGAA: 0.959

Study 5 — method: RNA Bind-n-Seq; molecule type: RNA; matrix: in vitro; tested at: 365 nM; baseline: no-protein control; reading: higher = stronger binding; measurement: RBNS enrichment (R)
Target: RNA binding protein fox-1 homolog 2, RRM domain, GST-SBP tag (RBFOX2, Homo sapiens, UniProt O43251-10, residues 100-194)
Setting: natural RNA segment, single round, ends assumed
Shared flanks, not repeated: GGGAGUUCUACAGUCCGACGAUC … UGGAAUUCUCGGGUGCCAA
Residues (chain): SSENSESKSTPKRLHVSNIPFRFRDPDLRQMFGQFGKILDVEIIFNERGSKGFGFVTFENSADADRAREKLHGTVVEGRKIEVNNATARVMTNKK
CUGUAACAUGGGAAUGGAAAUGUCCCUCUCUGGGCCUGUGUUUCUUUGUGUGUCCAGUGAAGGAACAGAACUAGAAGCCCAUUCAGCAACCUGUGAGAUUCUUACACAGG: 0.4
AACCAUAGUGCACAUAUUCCAGGAAAGUGUCUUUAAAAACAAAAACAAACCCUGAAAUGUAUAUUUGGGAUUAUGAUAAGGCAACUAAAGACAUGAAACCUCAGGUAUCC: 0.387
GGUGCUGAUGGAGGGAGGGGGAAGUCGAAGGAUGCUCUUUCCCUUUUCUGUUUAGGAAGAAGUGGUACUAGUGUGGUGUGUUUGCUUGGAAAUUCCUUGCCCCACAGUUG: 0.523
GUGUUUUCUUCCAUUCCUUCUUACUGCCCUGUCCUCUGCCUUGGAAGAGGCUUUGGGAAUAGUUCAUAGGGAAGGGACAACAUGGAAGAAACAGCGAUUUAAAUUGUAUU: 0.221
AUGAAGAACAAGGUGGUAUGAUCUUACUAUAUAAGAAAAACAAAACUUCAUUCUUGUGAGUCAUUUAAAUGUGUACAAUGUACACACUGGUACUUAGAGUUUCUGUUUUG: 0.286
GUGCAUGACUGUACUUUUCAUUAAAUAACAGAUAAGGGGCUAUAGAAUUUGGGGCUCUGACUGAUCAAAACCUGUGUAUCUGUGUCAAGUUUUAAGACCCCUGAAACAGC: 2.87
AACAGGGGUUAAGUAUUAAAUACACGAAGUUACAUUUUUGUUCAUGUUUCAUUGUCCAGAAAGCAGCAGGAAACUAUUCAGUUGUGAUCAAGCAGGAAAAAAGAAACACC: 0.264
UGGCAAAUUUUUAUUUUAAAAGUAUUCUUACAGAAGAGUUCCAUUUAAGAAUGUUCACUUAUAGGACCAAAAUAUAAAUAAAAACUUUCAAAUAUGUUUGAUUUUAAAUU: 0.676
UUCCUCCCGCACCCCUCCUCCCCCUGCUUCCUGUGGGAUCAGAGUAAGGCUCCUGUUGGCCAGUAGCUUGUGAUCUGGGACCUCUGGGGCCUCGUGUCUGCCUCACUCCC: 1.42
ACCCCAGUUAUAUAAUAUAAACUUUGUAAUCUGAGAGAAAAAAUGUAUAGUAAAUCUAAGUCUUGAUUUUUAACUUUCUAUUGUAAAAAAUAAUAAUAUACAGAGUUUAA: 0.79
AGUGUAAACAGUAGACACCCAGAAAAUCGUGACUUCUGUGUUCUCUCCAUUUGAGUAUUUUGUAAUUUUUUUGAAAUAUUUGUGGACAUAAAUAAAACCAAGCUACACUA: 0.492
CAGGGAUGCCUGGAGGCAUAUAUCCAGCUGCCACCAAGGGGCACUGUUUGUUCCCACUUAUGUGAGUGACCCCAUCCAUCCAUGACCAGAGGAUUAUUUUCCUGCCUUGG: 0.621
